{"data": "Measurements gathered from unrelated publications", "note": "Compare with care: the assays were run in different laboratories. Numbers after ± are the reported error."}
{"Molecule": "CSCC[C@H](NC(=O)[C@H](CC(C)C)NC(=O)[C@H](Cc1c[nH]cn1)NC(=O)CNC(=O)[C@@H](NC(=O)[C@H](C)NC(=O)[C@H](Cc1c[nH]c2ccccc12)NC(=O)[C@H](CCC(N)=O)NC(=O)CCCCCNC(=O)[C@H](CCC(=O)NCCCC[C@@H]1NC(=O)[C@@H](Cc2ccc(O)cc2)NC(=O)[C@H](CC(=O)O)NC(=O)CNC(=O)[C@H](CCCNC(=N)N)NC1=O)NC(=O)CN1CCN(CC(=O)O)CCN(CC(=O)O)CC1)C(C)C)C(N)=O [copper-64 labelled]", "system": "ICR SCID mouse, female, kidneys", "conditions": "intravenous, 750 kBq, 24 h", "endpoint": "tissue uptake", "result": "1.2 ± 0.36 %ID/g"}
{"Molecule": "insulin degludec", "assay": "ELISA", "system": "healthy human subjects, serum", "conditions": "subcutaneous, abdomen, 0.4 U/kg, 0 to 120 h", "endpoint": "AUC mean estimate", "result": "82.1 nM·h"}
{"Molecule": "Cc1cc(-c2ccc(NC(=O)[C@H](CCCCNC(=O)CCN3C(=O)CC(SCC(=O)N[C@H](Cc4ccccc4)C(=O)N[C@H]4CSSC[C@@H](C(=O)N[C@H](C(=O)O)[C@@H](C)O)NC(=O)[C@H]([C@@H](C)O)NC(=O)[C@H](CCCCN)NC(=O)[C@@H](Cc5c[nH]c6ccccc56)NC(=O)[C@H](Cc5ccc(O)cc5)NC4=O)C3=O)NC(=O)CN3CCN(CC(=O)O)CCN(CC(=O)O)CCN(CC(=O)O)CC3)c(C)c2)ccc1N=Nc1ccc2c(S(=O)(=O)O)cc(S(=O)(=O)O)c(N)c2c1O (stereo partly drawn) [yttrium-86 labelled]", "assay": "PET", "system": "female athymic nude mice, AR-42J xenograft, AR-42J tumour", "conditions": "intravenous, 0.92 MBq, 4 nmol, 24 h", "endpoint": "tumour uptake", "result": "60.5 ± 8.03 %ID/g"}
{"Molecule": "insulin glulisine", "system": "obese type 2 diabetes patients", "conditions": "subcutaneous, 0.2 U/kg, glucose below 70 mg/dL", "endpoint": "subjects with hypoglycaemia", "result": "36.1%"}
{"Molecule": "ACEEQNPWARYLEWLFPTETLLLEL", "assay": "ex vivo fluorescence", "system": "peptide, BALB/c mouse, 4T1 mammary tumour, tumour vs muscle", "conditions": "4 h", "how to read": "relative to: tumour over muscle", "endpoint": "contrast index", "result": 5}
{"Molecule": "insulin aspart", "system": "plasma", "conditions": "sc, 0.2 U/kg, 0-90 min", "endpoint": "AUC of insulin increment", "result": "4340 ± 441 µU·min/mL"}
{"Molecule": "PRL (Homo sapiens, UniProt P01236)", "assay": "NMR, refers to: His180", "conditions": "35 °C, 25 mM NaCl, microscopic; neighbours unprotonated, numbering of the source", "endpoint": "pKa", "result": 5.96}
{"Molecule": "COc1cccc2c1C(=O)c1c(O)c3c(c(O)c1C2=O)C[C@@](O)(C(=O)CO)C[C@@H]3O[C@H]1C[C@H](NC(=O)[C@@H]2CCCN2C(=O)CN)[C@H](O)[C@H](C)O1", "system": "mouse, E0771 tumour-bearing, liver", "conditions": "intravenous, 92 µmol/kg PhAc-ALGP-Dox", "endpoint": "Tmax", "result": "5 min"}
{"Molecule": "N=C(N)NCCC[C@@H]1NC(=O)[C@H](CSC2CC(=O)N(CCNC(=O)CN3CCN(CC(=O)O)CCN(CC(=O)O)CCN(CC(=O)O)CC3)C2=O)NC(=O)[C@H](CCCCN)NC(=O)[C@@H](Cc2ccc(O)cc2)NC(=O)[C@H](CC(=O)O)NC(=O)CNC1=O (stereo partly drawn) [gallium-68 labelled]", "system": "ICR mouse, female, blood", "conditions": "intravenous, 5 MBq, 1 to 120 min, two-compartment model", "endpoint": "elimination half-life", "result": "30.8 ± 8.59 min"}
{"Molecule": "insulin aspart", "assay": "LC-MS/MS", "system": "healthy humans, plasma", "conditions": "subcutaneous, 0.2 IU/kg, 0 to 8 h, before propensity score matching", "endpoint": "AUC", "result": "562 ± 85 ng·h/mL"}
{"Molecule": "COc1cccc2c1C(=O)c1c(O)c3c(c(O)c1C2=O)C[C@@](O)(C(=O)CO)C[C@@H]3O[C@H]1C[C@H](NC(=O)[C@@H]2CCCN2C(=O)CNC(=O)[C@@H](N)CC(C)C)[C@H](O)[C@H](C)O1", "system": "mouse, E0771 tumour-bearing, kidney", "conditions": "intravenous, 92 µmol/kg PhAc-ALGP-Dox", "endpoint": "Tmax", "result": "5 min"}
{"Molecule": "teriparatide", "assay": "ELISA", "system": "healthy women", "conditions": "sc, 20 µg single dose, reference product, arithmetic mean", "endpoint": "AUC% extrapolated", "result": "10.9 ± 5.54%"}
{"Molecule": "CC(C)[C@H](NC(=O)[C@@H]1CCCN1C(=O)[C@H](CCCNC(=N)N)NC(=O)[C@H](CS)NC(=O)[C@H](Cc1c[nH]c2ccccc12)NC(=O)[C@H](CCCNC(=N)N)NC(=O)[C@@H](Cc1ccccc1)NC(=O)[C@H](Cc1c[nH]cn1)NC(=O)[C@H](CCC(=O)O)NC(=O)[C@H](CS)NC(=O)[C@H](CS)NC(=O)[C@H](CCCCN)NC(=O)[C@@H]1CC(=O)N[C@@H](CCCNC(=N)N)C(=O)N[C@@H](C)C(=O)N[C@@H](CC(=O)O)C(=O)N[C@H](Cc2ccc(O)cc2)C(=O)N1)C(N)=O [technetium-99m labelled]", "system": "C57 mice, skin", "conditions": "intravenous, 0.037 MBq, 2 h", "endpoint": "tissue uptake", "result": "0.71 ± 0.25 %ID/g"}
{"Molecule": "Insulin human", "system": "rat, dorsal cortex", "conditions": "intranasal, 20 µg per nostril, 360 min", "endpoint": "brain concentration", "result": "0 pg/mg tissue"}
{"Molecule": "insulin degludec", "system": "human, end-stage renal disease", "conditions": "subcutaneous, 0.4 U/kg single dose, dosed after hemodialysis, geometric mean, non-dialysis profile", "endpoint": "CL/F", "result": "21.3 mL/h/kg"}
{"note": "Some of these lines once more:"}
{"Molecule": "teriparatide", "assay": "ELISA", "system": "healthy women", "conditions": "sc, 20 µg single dose, reference product, arithmetic mean", "endpoint": "AUC% extrapolated", "result": "10.9 ± 5.54%"}
{"Molecule": "PRL (Homo sapiens, UniProt P01236)", "assay": "NMR, refers to: His180", "conditions": "35 °C, 25 mM NaCl, microscopic; neighbours unprotonated, numbering of the source", "endpoint": "pKa", "result": 5.96}
